Measurements collected from several papers.
A part holds a random share of what one study measured.

Study 1
Target: RNA binding protein fox-1 homolog 2, RRM domain, GST-SBP tag (RBFOX2, Homo sapiens, UniProt O43251-10, residues 100-194)
Method: RNA Bind-n-Seq
Form: RNA
Medium: in vitro
Tested at: 365 nM
Notes: natural RNA segment, single round, ends assumed
Reference: no-protein control
Reading: higher = stronger binding
Constant ends, left off below: GGGAGUUCUACAGUCCGACGAUC … UGGAAUUCUCGGGUGCCAA
Construct (chain): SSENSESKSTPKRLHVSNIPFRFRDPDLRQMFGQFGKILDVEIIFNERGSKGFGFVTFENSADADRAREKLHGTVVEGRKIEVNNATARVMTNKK
`AUGACAAGGCAACCACAGAAGUCAGAACAAUCAGGCUUGAGUGGGUGGCCAGGUCAGCUACUGCCCUUCCCAGAAAGCCCUGGAGGUGACCAUAGCCUGUCACCACCCAA` — result for “RBNS enrichment (R)”: 0.228.
`AUAGCUCUGUGCUCUGGGCAGCUCUGAGCUCUCAGCCCUGUUGCUUUCAAUGUCAGUCACAGAGUGGAAGUUUCCCCAAAGUGGAAAGCUACCAUUGGGAACACAAGGGG`: “RBNS enrichment (R)” 0.223.
`UUUGAUUAUAUUCAGAUUUCCAAACAAGUGCUGGCCUUCAGAUCAUAAGUAUAAGAAAUAUGCAUCAUAUCUGCCUAUUGCAGGCUUCUGAAACUUGCACUGCCCAUCCA` — result for “RBNS enrichment (R)”: 0.438.
Under “RBNS enrichment (R)”, `UGCGACACUCAGAACACUUGAGGUGAUAGUUUUAAAAAAAACAAACAAACAGUACCAGUAUUUGAUCCAGUCUCAUCUCAGCUGUGUUAUACCUGGACAAUUUAGAUGUU` is recorded as 0.302.
For `UUAGUAGAGCCCUGCUUGGGCCUCACUUUGUGGACACCAGGCUGGUGCACCUCCCUUUUCAGGCACUCUGAGUGUCCUUCCCACCCAUGACAAGGCAACCACAGAAGUCA`, “RBNS enrichment (R)” read 0.357.
Under “RBNS enrichment (R)”, `AAGAGAAUUGCAGGGUCUUCUGCCCCUUUUCUAUCUGCCUGUAGCUCUCCAUUUUGAUUAAAUAGUUCAUUGCAUUCUGAAGUUUGGGGAUGUUUUUUCUUUCCUUUUCU` is recorded as 1.86.
Under “RBNS enrichment (R)”, `AGCACCGACUUUUUGAAAAUCAGAUAAACAUGGUUAUUGACAUUUUUUGAGUCAGAGUAGGGCUGGAGAACACUUCAUAUUUGAUGCCUUUUAGCUAAAGACAUUCAUUA` is recorded as 0.307.
`CUGUGUGAAGCUUUCAAGAGCUUGGUACUUCCCAGGGCUACCGGCAGUCCUCUGUAGUCCAGAGAGGUGAGAUUAGAUCUUCUUGGUUCCCUGUGAGGUUUCAGGCACUA` — result for “RBNS enrichment (R)”: 0.3.

Study 2
Target: Sal-like protein 4, full length isoform A (SALL4, Homo sapiens, UniProt Q9UJQ4, residues 1-1053)
Chain of UniProt Q9UJQ4 (whole entry, looked up): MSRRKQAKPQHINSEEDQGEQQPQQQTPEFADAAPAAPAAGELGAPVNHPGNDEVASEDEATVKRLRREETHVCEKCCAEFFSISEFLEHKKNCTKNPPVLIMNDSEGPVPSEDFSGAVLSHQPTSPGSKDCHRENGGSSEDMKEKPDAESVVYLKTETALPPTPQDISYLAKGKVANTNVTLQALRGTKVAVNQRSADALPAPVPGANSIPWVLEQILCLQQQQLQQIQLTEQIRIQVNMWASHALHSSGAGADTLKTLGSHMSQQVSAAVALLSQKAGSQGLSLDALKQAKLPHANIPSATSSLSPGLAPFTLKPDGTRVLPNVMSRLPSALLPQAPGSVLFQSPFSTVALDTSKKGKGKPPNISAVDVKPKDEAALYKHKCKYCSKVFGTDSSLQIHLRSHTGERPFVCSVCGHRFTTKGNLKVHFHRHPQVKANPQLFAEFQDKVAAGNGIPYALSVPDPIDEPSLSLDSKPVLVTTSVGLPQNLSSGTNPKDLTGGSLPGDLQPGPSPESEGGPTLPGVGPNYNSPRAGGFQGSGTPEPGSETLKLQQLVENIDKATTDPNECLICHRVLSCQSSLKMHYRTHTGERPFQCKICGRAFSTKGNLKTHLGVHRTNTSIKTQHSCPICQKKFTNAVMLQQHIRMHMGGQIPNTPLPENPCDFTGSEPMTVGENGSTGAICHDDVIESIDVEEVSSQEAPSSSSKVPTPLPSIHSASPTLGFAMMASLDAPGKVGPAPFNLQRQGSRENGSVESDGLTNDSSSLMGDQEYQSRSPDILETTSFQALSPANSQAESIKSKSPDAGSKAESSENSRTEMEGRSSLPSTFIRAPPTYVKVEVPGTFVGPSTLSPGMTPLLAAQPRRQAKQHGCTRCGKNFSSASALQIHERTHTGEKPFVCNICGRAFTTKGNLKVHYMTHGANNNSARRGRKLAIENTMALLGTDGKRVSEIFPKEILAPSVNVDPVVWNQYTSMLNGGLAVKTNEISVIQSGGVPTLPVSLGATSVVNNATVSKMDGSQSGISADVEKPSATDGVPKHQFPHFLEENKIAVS
Method: universal PBM
Form: double-stranded DNA, one strand shown
Medium: in vitro
Tested at: 600 nM
Notes: 8-mer, flanks averaged, mean of replicates
Reading: higher = stronger binding
The E-score of `ACGGGCCG` is reported as -0.395.
The E-score of `CTATGCCC` is reported as -0.102.
With `TAATCCCA` the E-score was 0.0626.
`ACATCAAA` has an E-score of 0.186.
For `CTAGTCGA`, the E-score was -0.0087.
With `CCGACTCG` the E-score was -0.192.
`TTACGCAA` gave an E-score of 0.185.
`AACCTTTA` has an E-score of 0.12.
`TAAGTAAA` has an E-score of 0.284.
For `GGCATGGA`, the E-score was -0.0932.
The E-score of `CTTAGACC` is reported as 0.0211.
With `GAATCATA` the E-score was 0.325.
`AAACCTTA` has an E-score of 0.18.
`GCTCTGCC` has an E-score of -0.27.
`ATCATAGC` gave an E-score of 0.184.
For `CCGTTAGG`, the E-score was -0.224.
`ACCACCGT` gave an E-score of -0.22.
`CTGGGCTA` has an E-score of -0.347.

Study 3
Target: RING finger protein unkempt homolog, zinc fingers 1-6, GST-SBP tag (UNK, Homo sapiens, UniProt Q9C0B0, residues 30-357)
Method: RNA Bind-n-Seq
Form: RNA
Medium: in vitro
Tested at: not given
Notes: RNA with constant flanks, ends assumed
Reference: input RNA pool
Reading: higher = stronger binding
Constant ends, left off below: GGGAGUUCUACAGUCCGACGAUC … CAACAGAGGAUUGAGCAUCA
Construct (chain): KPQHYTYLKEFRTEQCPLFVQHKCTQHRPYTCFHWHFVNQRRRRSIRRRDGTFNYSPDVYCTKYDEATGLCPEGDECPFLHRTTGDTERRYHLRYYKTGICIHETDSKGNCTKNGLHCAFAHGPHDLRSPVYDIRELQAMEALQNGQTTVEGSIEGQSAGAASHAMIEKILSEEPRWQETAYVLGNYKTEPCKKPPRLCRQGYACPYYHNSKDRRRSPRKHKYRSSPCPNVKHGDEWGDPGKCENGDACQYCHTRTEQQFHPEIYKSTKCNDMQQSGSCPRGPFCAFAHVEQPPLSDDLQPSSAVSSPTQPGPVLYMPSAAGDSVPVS
With `ACACCCUUGGCCAGCCUUUCUCCUGAAUAUCAGCUACCAAGAUCAGUACCAGUGGUGCCGUCUUUUGCCGCCAAUGACAGAGCAGAUAAAAAUGCUGCUGCCUAUUUUGAGGGUCAUCAU` the bound/input enrichment was 0.115 ratio.
For `GAUGCCAUUUAUGGACACCCCCUCUUCCCUCUCUUAGCACUGAUUUUUGAGAAAUGUGAAUCCGCUACUUGUACCCCCCGCGAGCCGGGGGUGGCGGGCGGGGACGUCUGCUCGUCAGAG`, the bound/input enrichment was 4.89 ratio.
The bound/input enrichment of `CUUUAUGGGCCUCGAAGAGUUGAAAUAAUGGAAGAAGAAAGUGAACAGUAAUCUUCAAUUCCGCUAUUUAUGCUUAGGUGUGAAUGUUUUUGUUGUUGUUGUUGAACAUUUCUAUAAUCU` is reported as 0.207 ratio.
`GAAAUGGCCACCACAGAAGAUGCUCAGGCUGCUGUGGAUUAUUAUACAACUACACCAGCAUCCGUGUUUGGCAAGCCAGUGAGAGUUCAUUUAUCCCAGAAGUAUAAGAGAAUAAAGAAA` gave a bound/input enrichment of 0.581 ratio.
`GCUUGUGCCACUCAGGCUAUCGUAAGUGUACUACUGAACUGUACGCAUCAAGAUGUGCAUUCCGGAGAGACAUUAUCAGAAUUUAAAGAAUUUUCUCAAAGUUUUGAUGCAGCUAUGAAG` gave a bound/input enrichment of 0.0928 ratio.
`GGACUUGAACAACUCACCAAGUCUCCAGUGGAAUUUGUAGAAUAUAACAAAAUGCAGCUCCGCAGGAUAUAUCCAAAAGGAACACGUGUGGAUUCAUCCAACUAUAUGCCUCAGCUCUUC` has a bound/input enrichment of 0.133 ratio.
For `CAUGCAGCUGUCUUUGUUUUGUUCUUGGUAGCUGUUACUGCUACAUGUUUACAGUACUUUCCGUUUUAAUUUCGAAGUAAGCUUUUCUGACAGACAUUUUGCAACAACUUGACUGUUGUA`, the bound/input enrichment was 0.201 ratio.
The bound/input enrichment of `ACCAGGGGAACUUCCAUCAAGGAGUUCCGGGAGAUGACCCUCAGCUUCCUCAAGGCUAACUCCGGAGACCUGCCUUCCCUGCCAGCGCUGGUUGACCAGAUACUUCUCAUGGCGGACUUC` is reported as 0.142 ratio.

Study 4
Target: Cyclic AMP-responsive element-binding protein 1, full length (CREB1, Homo sapiens, UniProt P16220, residues 1-327)
Chain of UniProt P16220 (whole entry, looked up): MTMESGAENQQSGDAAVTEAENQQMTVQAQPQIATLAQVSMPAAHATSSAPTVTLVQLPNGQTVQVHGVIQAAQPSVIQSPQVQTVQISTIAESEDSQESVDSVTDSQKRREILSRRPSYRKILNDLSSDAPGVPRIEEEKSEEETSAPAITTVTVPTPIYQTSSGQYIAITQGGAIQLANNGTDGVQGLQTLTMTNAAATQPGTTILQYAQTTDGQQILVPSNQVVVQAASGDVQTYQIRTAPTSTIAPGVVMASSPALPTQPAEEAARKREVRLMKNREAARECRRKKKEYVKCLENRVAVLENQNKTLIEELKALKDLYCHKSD
Method: protein-binding microarray
Form: hairpin DNA
Medium: in vitro
Tested at: not given
Notes: whole hairpin DNA, median over replicate spots
Reference: not given
Reading: higher = stronger binding
For `GAGGCCGACGACGTCCGGCCTCCTGGCCGGACGTCGTCGGCCTCACACTC (5mC at 9 15 28 35)`, the median fluorescence was 3190 a.u.
The median fluorescence of `GAGGCCGGATGACCGCAGCCTCCTGGCTGCGGTCATCCGGCCTCACACTC (5mC at 14 30)` is reported as 2850 a.u.
For `GAGGCCGAGGACGTCGTGCCTCCTGGCACGACGTCCTCGGCCTCACACTC (5mC at 15 29 35 36)`, the median fluorescence was 3110 a.u.
The median fluorescence of `GAGGCCGGATGACCGCAGCCTCCTGGCTGCGGTCATCCGGCCTCACACTC (5mC at 30)` is reported as 3040 a.u.
With `GAGGCCGGCTGACCGCAGCCTCCTGGCTGCGGTCAGCCGGCCTCACACTC (5mC at 14 30)` the median fluorescence was 2610 a.u.
The median fluorescence of `GAGGCCGACCGCGTCGTGCCTCCTGGCACGACGCGGTCGGCCTCACACTC (5mC at 9 10 15 29)` is reported as 3180 a.u.
`GAGGCCGACTGACGTCAGCCTCCTGGCTGACGTCAGTCGGCCTCACACTC` gave a median fluorescence of 12000 a.u.
`GAGGCCGGATGACGTCAGCCTCCTGGCTGACGTCATCCGGCCTCACACTC (5mC at 16)` gave a median fluorescence of 12400 a.u.
The median fluorescence of `GAGGCCGGCTGACGGCAGCCTCCTGGCTGCCGTCAGCCGGCCTCACACTC (5mC at 30)` is reported as 3180 a.u.
`GAGGCCGGACGACGTCAGCCTCCTGGCTGACGTCGTCCGGCCTCACACTC (5mC at 10 34)` has a median fluorescence of 5940 a.u.
`GAGGCCGACGACGTCGGGCCTCCTGGCCCGACGTCGTCGGCCTCACACTC (5mC at 9 15 28 29 35)` gave a median fluorescence of 3740 a.u.
For `GAGGCCGGATGACATCAGCCTCCTGGCTGATGTCATCCGGCCTCACACTC`, the median fluorescence was 5420 a.u.
`GAGGCCGGCTGACGTCAGCCTCCTGGCTGACGTCAGCCGGCCTCACACTC (5mC at 31)` gave a median fluorescence of 4310 a.u.
`GAGGCCGGCCGACGTCAGCCTCCTGGCTGACGTCGGCCGGCCTCACACTC (5mC at 10 34)` has a median fluorescence of 4820 a.u.
With `GAGGCCGACGACGTCCGGCCTCCTGGCCGGACGTCGTCGGCCTCACACTC (5mC at 9 15 16 35)` the median fluorescence was 2890 a.u.
For `GAGGCCGGATGCCGTCAGCCTCCTGGCTGACGGCATCCGGCCTCACACTC (5mC at 12)`, the median fluorescence was 3060 a.u.
The median fluorescence of `GAGGCCGGCCGACGTCAGCCTCCTGGCTGACGTCGGCCGGCCTCACACTC (5mC at 10)` is reported as 6290 a.u.
For `GAGGCCGGATGAAGTCAGCCTCCTGGCTGACTTCATCCGGCCTCACACTC`, the median fluorescence was 2760 a.u.
`GAGGCCCGATGACGTCAGCCTCCTGGCTGACGTCATCGGGCCTCACACTC (5mC at 7)` gave a median fluorescence of 29500 a.u.
For `GAGGCCGGATCACGTCAGCCTCCTGGCTGACGTGATCCGGCCTCACACTC`, the median fluorescence was 4680 a.u.
`GAGGCCGGATGACGCGAGCCTCCTGGCTCGCGTCATCCGGCCTCACACTC (5mC at 29)` has a median fluorescence of 6230 a.u.
With `GAGGCCGGATGACGTTAGCCTCCTGGCTAACGTCATCCGGCCTCACACTC` the median fluorescence was 8200 a.u.

Excerpt of the above (study 3):
With `ACACCCUUGGCCAGCCUUUCUCCUGAAUAUCAGCUACCAAGAUCAGUACCAGUGGUGCCGUCUUUUGCCGCCAAUGACAGAGCAGAUAAAAAUGCUGCUGCCUAUUUUGAGGGUCAUCAU` the bound/input enrichment was 0.115 ratio.
For `GAUGCCAUUUAUGGACACCCCCUCUUCCCUCUCUUAGCACUGAUUUUUGAGAAAUGUGAAUCCGCUACUUGUACCCCCCGCGAGCCGGGGGUGGCGGGCGGGGACGUCUGCUCGUCAGAG`, the bound/input enrichment was 4.89 ratio.
The bound/input enrichment of `CUUUAUGGGCCUCGAAGAGUUGAAAUAAUGGAAGAAGAAAGUGAACAGUAAUCUUCAAUUCCGCUAUUUAUGCUUAGGUGUGAAUGUUUUUGUUGUUGUUGUUGAACAUUUCUAUAAUCU` is reported as 0.207 ratio.
`GAAAUGGCCACCACAGAAGAUGCUCAGGCUGCUGUGGAUUAUUAUACAACUACACCAGCAUCCGUGUUUGGCAAGCCAGUGAGAGUUCAUUUAUCCCAGAAGUAUAAGAGAAUAAAGAAA` gave a bound/input enrichment of 0.581 ratio.
`GCUUGUGCCACUCAGGCUAUCGUAAGUGUACUACUGAACUGUACGCAUCAAGAUGUGCAUUCCGGAGAGACAUUAUCAGAAUUUAAAGAAUUUUCUCAAAGUUUUGAUGCAGCUAUGAAG` gave a bound/input enrichment of 0.0928 ratio.
`GGACUUGAACAACUCACCAAGUCUCCAGUGGAAUUUGUAGAAUAUAACAAAAUGCAGCUCCGCAGGAUAUAUCCAAAAGGAACACGUGUGGAUUCAUCCAACUAUAUGCCUCAGCUCUUC` has a bound/input enrichment of 0.133 ratio.
For `CAUGCAGCUGUCUUUGUUUUGUUCUUGGUAGCUGUUACUGCUACAUGUUUACAGUACUUUCCGUUUUAAUUUCGAAGUAAGCUUUUCUGACAGACAUUUUGCAACAACUUGACUGUUGUA`, the bound/input enrichment was 0.201 ratio.
The bound/input enrichment of `ACCAGGGGAACUUCCAUCAAGGAGUUCCGGGAGAUGACCCUCAGCUUCCUCAAGGCUAACUCCGGAGACCUGCCUUCCCUGCCAGCGCUGGUUGACCAGAUACUUCUCAUGGCGGACUUC` is reported as 0.142 ratio.
